Measured values from different studies.
Protocols differ between the studies behind these lines. Several values in a cell are separate wells, animals, samples, runs or records.
Target: Discoidin domain-containing receptor 2 (DDR2, Homo sapiens, UniProt Q16832)

Structure (SMILES)	test	conditions	scale	measurement	value
C[C@H]1CN(C(=O)c2cn(-c3ccnc(N)n3)c3cc(C#CC4(O)CCCCC4)ccc23)CCN1	cell-free assay, TR-FRET	1 µM	–	inhibition	-4%
Cc1cccc(O[C@H]2CCC[C@@H](C(C)CNCc3ccncc3)C2)c1 (relative stereo)	cell-free assay	10 µM	–	inhibition	-4%
CCN1CCN(Cc2ccc(C(=O)Nc3ccc(C)c(NCc4cnc5[nH]ccc5c4OC)c3)cc2C(F)(F)F)CC1	binding, competition with immobilised ligand	1 µM	–	remaining binding	9.9%
COc1cc(Nc2nccc(-c3cnn4nc(OC)ccc34)n2)cc(C(F)(F)F)c1	binding, competition with immobilised ligand	1 µM	–	remaining binding	96%
CCN1CCN(Cc2ccc(NC(=O)c3ccc(C)c(NC(=O)c4cncc(-c5cccs5)c4)c3)cc2C(F)(F)F)CC1	binding, competition with immobilised ligand	1 µM	–	remaining binding	0%
CNC(=O)c1ccc2c(c1)nc(-c1cn(CC(=O)c3ccccc3)c3ccccc13)n2CC1CCCCN1C(=O)OC(C)(C)C (stereo not drawn)	competition binding	–	baseline: DDR2 over DDR1	selectivity ratio	41
NC(=O)[C@@H](O)C[C@H]1CCc2sc3ncnc(O[C@H]4CC[C@H](N5CCOCC5)CC4)c3c21	enzyme activity, inhibitor	10 µM	–	inhibition	1%
CC(C)=CC1OC(C)(C)C2C=C3C(=O)C(Cl)=CC(O)C3C3C(O)C4OC4C(=O)C132 (stereo not drawn)	cell-free assay, competition with immobilised ligand	10 µM	–	remaining binding	88%
CNC(=O)c1ccc(CNC(=O)c2cnn3ccccc23)cc1	competition binding	–	baseline: DDR2 over DDR1	selectivity ratio	3.3
COc1ccc(NC(=O)Nc2ccc3c(c2)C(=O)N(C(C)CO)CC(C)C(CN(C)Cc2ccc4c(c2)OCO4)O3)cc1 (stereo not drawn)	kinase activity, KinaseProfiler	0.03 µM, species human	baseline: control	remaining activity	97%
C=CC(=O)Nc1cccc(-c2cnc3[nH]cc(C(=O)NC(C)(C)C)c3n2)c1	kinase activity	0.1 µM	–	inhibition	-3% and 2%
CN1CC[C@@H](COc2cnc(C#N)cc2-c2ccn3nc(NC(=O)C4CC4)cc3c2)C1	enzyme activity, inhibitor	1 µM	–	inhibition	-3%
O=C(Nc1ccc(Oc2ncnc3[nH]cc(-c4ccccc4)c23)c(F)c1)c1c2n(n(-c3cc(F)ccc3F)c1=O)CCCC2	enzyme activity, inhibitor	0.5 µM	–	inhibition	16%
Cc1ccc(-c2c(/C=C(\C#N)C(=O)NC(C)C)n(CCCO)c3ncnc(N)c23)cc1	cell-free assay, competition with immobilised ligand	1 µM	–	remaining binding	100%
CNC(=O)c1ccc(-c2cccc(NC(=O)Cc3cc(C(=O)c4ccc([S+](C)[O-])cc4)c4occc4c3)c2)cc1 (stereo not drawn)	competition binding	–	baseline: DDR2 over DDR1	selectivity ratio	20
CNC(=O)C1CCN(c2cc(C)c(F)cc2NC(=O)c2ccc(-c3cc(O)ccc3C)c(C)c2)CC1	binding, competition with immobilised ligand	1 µM	–	remaining binding	97%
O=C(Cc1ccc(OCc2ccccc2)cc1)NC1(C(=O)O)CCN(C(=O)c2ccc(-c3cccc(Cl)c3)cc2)CC1	enzyme activity, inhibitor	10 µM	–	activity vs control	102%
CC1C(=O)N(C)C(c2ccc(Oc3cnc4ccccc4n3)cc2)N1C(=O)c1cc(C(C)(C)C)nn1-c1ccccc1 (stereo not drawn)	competition binding	–	baseline: DDR2 over DDR1	selectivity ratio	8
O=C=[N][Ru-4]123([n]4c5ccc(O)cc5c5c6c(c7cc(F)c[n+]1c7c54)C(=O)NC6=O)[S+]1CC[S+]2CC[S+]3CC1 (stereo not drawn)	enzyme activity	100 nM, human enzyme, with: 10 µM ATP	baseline: untreated	remaining activity	92%
CNC(=O)Nc1ccc(Cc2ccc(NC(=O)c3cc(Br)c(=O)n(CC4CC4)c3)cc2)cc1	competition binding	–	baseline: DDR2 over DDR1	selectivity ratio	17
C=CC(=O)N1Cc2nc(-c3cc(-c4cc(Cl)cnc4Cl)c(F)cc3F)n(-c3ccncn3)c2C1	cell-free assay	1 µM	–	inhibition	1.7%

For quick reference, copied from above:
Structure (SMILES)	test	conditions	scale	measurement	value
CNC(=O)c1ccc(-c2cccc(NC(=O)Cc3cc(C(=O)c4ccc([S+](C)[O-])cc4)c4occc4c3)c2)cc1 (stereo not drawn)	competition binding	–	baseline: DDR2 over DDR1	selectivity ratio	20
C[C@H]1CN(C(=O)c2cn(-c3ccnc(N)n3)c3cc(C#CC4(O)CCCCC4)ccc23)CCN1	cell-free assay, TR-FRET	1 µM	–	inhibition	-4%
